Assay results collected from several papers.
Numbered parts are unrelated; each lists some results of a single study. ± gives the spread as reported.

Sample 1 — effect on: reporter gene (mKate2); action: inhibitor; tested at: 20 µM
Target: Replicase polyprotein 1ab, main protease (rep, Severe acute respiratory syndrome coronavirus 2, UniProt P0DTD1)
For `O=C(O)c1cc(NCc2cc(O)ccc2O)ccc1O`, the inhibition was -1.4%.
For `C[C@@H]1O[C@@H](Oc2ccc(CN=C=S)cc2)[C@H](O)[C@H](O)[C@H]1O`, the inhibition was -0.522%.
`NCc1cccnc1` gave an inhibition of 0.0392%.

Mixed results
Under “anaemia TEAE, Moderate severity”, `Cn1cnc(Cn2c(=O)[nH]/c(=N\c3cc4cn(C)nc4cc3Cl)n(Cc3cc(F)c(F)cc3F)c2=O)n1` is recorded as 0% (human, mild renal impairment; oral, 375 mg).
Under “frequency of responding donors”, `RVYSTGSNV` is recorded as 33 (AIM; peptide, CD8+ T cells from PBMC, human donors; HLA-A*30:01 restricted, unit not given; relative to: positive over tested donors).
With `CC[C@H](C)[C@H](NC(=O)[C@H](CC(C)C)NC(=O)[C@H](Cc1c[nH]c2ccccc12)NC(=O)[C@H](CCC(N)=O)NC(=O)[C@@H](NC(=O)[C@H](Cc1ccccc1)NC(=O)[C@H](C)NC(=O)[C@H](CCCCNC(=O)COCCOCCNC(=O)COCCOCCNC(=O)CC[C@H](NC(=O)CCCCCCCCCCCCCCCCCCC(=O)O)C(=O)O)NC(=O)[C@H](CCC(N)=O)NC(=O)[C@H](C)NC(=O)[C@@H](NC(=O)[C@H](CCCCN)NC(=O)[C@H](CC(=O)O)NC(=O)[C@H](CC(C)C)NC(=O)C(C)(C)NC(=O)[C@@H](NC(=O)[C@H](CO)NC(=O)[C@H](Cc1ccc(O)cc1)NC(=O)[C@H](CC(=O)O)NC(=O)[C@H](CO)NC(=O)[C@@H](NC(=O)[C@H](Cc1ccccc1)NC(=O)[C@@H](NC(=O)CNC(=O)[C@H](CCC(=O)O)NC(=O)C(C)(C)NC(=O)[C@@H](N)Cc1ccc(O)cc1)[C@@H](C)O)[C@@H](C)O)[C@@H](C)CC)[C@@H](C)CC)C(C)C)C(=O)N[C@@H](C)C(=O)NCC(=O)NCC(=O)N1CCC[C@H]1C(=O)N[C@@H](CO)C(=O)N[C@@H](CO)C(=O)NCC(=O)N[C@@H](C)C(=O)N1CCC[C@H]1C(=O)N1CCC[C@H]1C(=O)N1CCC[C@H]1C(=O)N[C@@H](CO)C(N)=O` the serum amylase was 75.1 ± 24.4 U/L (healthy subjects, single ascending dose; 0.5 mg, baseline).
For `WNSNNLDSKVGGNYN`, the responding donors was 9% (human CD4 T cells; AIM; peptide).
With `Nc1ncnc2c([C@@H]3N[C@H](CO)[C@@H](O)[C@H]3O)c[nH]c12` the inhibition was 4.3% (Lassa mammarenavirus; viral replication; HeLa, Josiah; 0.4 µM).

Excerpt of the above (sample 1):
`NCc1cccnc1` gave an inhibition of 0.0392%.
